{"data": "Measurements gathered from unrelated publications", "note": "Parts stem from different laboratories: compare values within a part only. Positions count from the first letter of the parent shown."}
{"data": "Block 1", "target": "OGT, full length, His-tagged (human)", "method": "phage display, sequencing", "medium": "in vitro", "tested at": "1 µg OGT", "setting": "single substitutions, 15-mer displayed peptide, unchanged parent 5.27", "relative to": "input library", "direction": "higher = stronger binding", "starting sequence": "peptide; GDFPVMFMPKYSIIY"}
{"Substitution": "GDFPVMFEPKYSIIY [M8E]", "fold enrichment": "0.213 fold"}
{"Substitution": "GDFPVFFMPKYSIIY [M6F]", "fold enrichment": "8.25 fold"}
{"Substitution": "TDFPVMFMPKYSIIY [G1T]", "fold enrichment": "5.39 fold"}
{"Substitution": "GDFPQMFMPKYSIIY [V5Q]", "fold enrichment": "5.44 fold"}
{"Substitution": "GDFPVMFMPKYSIIQ [Y15Q]", "fold enrichment": "0.901 fold"}
{"Substitution": "GDFPVMFMPKYTIIY [S12T]", "fold enrichment": "4.79 fold"}
{"data": "Block 2", "target": "Histone acetyltransferase KAT6A, both winged helices, GST fusion (KAT6A, Homo sapiens, UniProt Q92794, residues 1-181)", "method": "protein binding microarray", "molecule type": "double-stranded DNA, one strand shown", "medium": "in vitro", "tested at": "not given", "setting": "8-mer, flanks averaged, mean of 2 arrays, mostly near background", "relative to": "not given", "direction": "higher = stronger binding", "Target sequence (chain)": "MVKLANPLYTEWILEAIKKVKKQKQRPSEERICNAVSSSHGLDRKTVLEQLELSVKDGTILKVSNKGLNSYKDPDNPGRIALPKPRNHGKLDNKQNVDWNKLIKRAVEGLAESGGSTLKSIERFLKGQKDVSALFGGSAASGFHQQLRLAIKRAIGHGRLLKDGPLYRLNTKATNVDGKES"}
{"Strand": "CAGTGCCA", "E-score": -0.299}
{"Strand": "AATTTTAT", "E-score": 0.0502}
{"Strand": "AACCGTCT", "E-score": 0.11}
{"Strand": "AGTCAGGA", "E-score": -0.0714}
{"Strand": "ATTCGAAC", "E-score": -0.0972}
{"Strand": "GTATCCAC", "E-score": -0.0635}
{"Strand": "CTTATGGA", "E-score": -0.172}
{"Strand": "TCATGCGA", "E-score": 0.017}
{"Strand": "CCTTCCAC", "E-score": -0.136}
{"Strand": "GTCCACAA", "E-score": -0.195}
{"Strand": "ACACCGCG", "E-score": 0.346}
{"Strand": "AACACGCT", "E-score": 0.131}
{"Strand": "AGTTTCCG", "E-score": 0.245}
{"Strand": "CGTTCGCA", "E-score": 0.144}
{"Strand": "GATTAATC", "E-score": -0.0435}
{"data": "Block 3", "target": "CCNE1, cyclin fold, Cln2 fusion (human)", "method": "yeast growth competition, sequencing", "medium": "yeast", "setting": "weak parent motif", "relative to": "not given", "direction": "higher = stronger binding", "starting sequence": "ORC1 docking peptide (human); PRARKRLELGNLG"}
{"Substitution": "P1F", "normalised enrichment score": 0.0588}
{"Substitution": "L12M", "normalised enrichment score": 0.6}
{"Substitution": "K5R", "normalised enrichment score": 0.634}
{"Substitution": "G10I", "normalised enrichment score": 0.712}
{"Substitution": "R4H", "normalised enrichment score": 0.659}
{"Substitution": "E8Y", "normalised enrichment score": 0.254}
{"Substitution": "L9P", "normalised enrichment score": -0.271}
{"Substitution": "G10K", "normalised enrichment score": -0.491}
{"Substitution": "K5N", "normalised enrichment score": 0.793}
{"data": "Other studies, line by line"}
{"Substance": "PhoQ, residues 284 288 289 292 302 303 MLMVEA", "target": "PhoP, residues 12 14 15 18 19 SQCLL (Escherichia coli, UniProt P23836)", "test": "Sort-seq, measured: YFP reporter", "test system": "E. coli", "conditions": "PhoQ-PhoP variant library, added: 10 µM Mg2+", "how to read": "relative to: high Mg2+ state, higher = stronger signaling", "quantity": "fold induction", "value": 9.36}
{"note": "Repeated from above (block 2):"}
{"Strand": "GTATCCAC", "E-score": -0.0635}
{"Strand": "CGTTCGCA", "E-score": 0.144}
